Measured values gathered from unrelated publications.
Lines come from different studies, so protocols differ. ± marks the error that the study gave.

| SMILES | assay | system | setting | how to read | endpoint | result |
| --- | --- | --- | --- | --- | --- | --- |
| CC1=C2Cc3cc(ccc3O)C(=O)O[C@H](C(C)(C)Br)CC[C@](C)(O)[C@H](Br)CC[C@]2(C)[C@@H](Br)CC1 | – | human liver S9 fraction | 10 µM, 24 h, without UDPGA | – | intrinsic clearance | 0.0312 ± 0.0036 L/h/kg |
| CC(=O)O[C@H]1C(=O)[C@@]2(C)[C@H]([C@H](OC(=O)c3ccccc3)[C@]3(O)C[C@H](OC(=O)[C@H](O)[C@@H](NC(=O)c4ccccc4)c4ccccc4)C(C)=C1C3(C)C)[C@]1(OC(C)=O)CO[C@@H]1C[C@@H]2O | – | patients | i.v., 200 mg/m^2, 3 h, added: lenvatinib 4 mg twice daily, carboplatin | – | end-of-infusion concentration | 7270 ± 2100 ng/mL |
| O=c1c(O)c(-c2ccc(O)cc2)oc2cc(OS(=O)(=O)O)cc(O)c12 | – | FVB mice, male, Bcrp1^−/−, plasma | oral, 10 mg/kg of kaempferol | – | MRT | 2.62 ± 0.133 h |
| CC1(C)S[C@@H]2[C@H](NC(=O)[C@H](N)c3ccc(O)cc3)C(=O)N2[C@H]1C(=O)O | mitochondrial swelling | BALB/cByJ female mouse liver mitochondria | 30 min, added: succinate + rotenone | relative to: CaCl2 maximal swelling | EC20 | > 400 µM |
| CC(C)[C@H](NC(=O)[C@@H]1CCCN1C(=O)[C@H](CCCNC(=N)N)NC(=O)[C@H](CS)NC(=O)[C@H](Cc1c[nH]c2ccccc12)NC(=O)[C@H](CCCNC(=N)N)NC(=O)[C@@H](Cc1ccccc1)NC(=O)[C@H](Cc1c[nH]cn1)NC(=O)[C@H](CCC(=O)O)NC(=O)[C@H](CS)NC(=O)[C@H](CS)NC(=O)[C@H](CCCCN)NC(=O)[C@@H]1CC(=O)N[C@@H](CCCNC(=N)N)C(=O)N[C@@H]([C@@H](C)O)C(=O)N[C@@H](CC(=O)O)C(=O)N[C@H](Cc2ccc(O)cc2)C(=O)N1)C(N)=O [technetium-99m labelled] | – | C57 mouse, female, B16/F1 melanoma | intravenous, 2 h, added: NDP-MSH 10 µg co-injected | relative to: tumour over lung | uptake ratio | 2.42 |
| Cn1c(-c2ccc(C(N)=O)cc2F)nnc1C(C)(C)Oc1c(F)cc(Cl)cc1F | – | young non-Japanese humans, plasma | oral, 2 mg once daily, last day of 14 days | – | median half-life | 87.6 h |
| CC(C)[C@@H](C)[C@@]1(C)CC[C@]2(C)[C@H]3CC[C@@H]4[C@@]5(COC[C@@]4(C)[C@@H](OC[C@](C)(N)C(C)(C)C)[C@H](n4ncnc4-c4ccncc4)C5)C3=CC[C@@]2(C)[C@@H]1C(=O)O | – | human, both sexes, plasma | oral, 1250 mg day 1, then 750 mg days 2 and 3, 24 h, day 3, geometric mean | – | concentration at 24 h | 0.385 µg/mL |
| COc1cccc(N2CCN(C3=Nc4c(F)cccc4[C@H](CC(=O)O)N3c3cc(C(F)(F)F)ccc3OC)CC2)c1 | UHPLC-MS/MS | healthy women, plasma | intravenous infusion, 120 mg single dose, 30 min infusion, HPβCD formulation | – | AUC(0-last) | 13.6 ± 3.8 µg·h/mL |
| CO[C@H]1C[C@@H]2CC[C@@H](C)[C@@](O)(O2)C(=O)C(=O)N2CCCC[C@H]2C(=O)O[C@H]([C@H](C)C[C@@H]2CC[C@@H](OC(=O)C(C)(CO)CO)[C@H](OC)C2)CC(=O)[C@H](C)/C=C(\C)[C@@H](O)[C@@H](OC)C(=O)[C@H](C)C[C@H](C)/C=C/C=C/C=C/1C | – | human, whole blood | intravenous, 35 mg/m2 weekly, cycle 5, added: valproic acid | – | median Cmax | 1.09 µg/mL |
| COc1cc(/C=C/C(=O)CC(=O)/C=C/c2ccc(O)c(OC)c2)ccc1O | I-125 label | C57BL/6J mouse, cerebral cortex | intranasal vs intraperitoneal, 10 µg/mouse IN, 100 µg/mouse IP, 8 h | relative to: intranasal over intraperitoneal | brain uptake ratio | 5.28 |
| CCCC[C@@H]1NC(=O)[C@@H](NC(=O)[C@H](CCC(=O)O)NC(=O)CNC(=O)CN2CCN(CC(=O)O)CCN(CC(=O)O)CCN(CC(=O)O)CC2)CCCCNC(=O)C[C@@H](C(N)=O)NC(=O)[C@H](C(C)C)NC(=O)[C@@H]2CCCN2C(=O)[C@H](CCCNC(=N)N)NC(=O)CNC(=O)[C@H](Cc2c[nH]c3ccccc23)NC(=O)[C@H](CCCNC(=N)N)NC(=O)[C@@H](Cc2ccccc2)NC(=O)[C@H](Cc2c[nH]cn2)NC(=O)[C@H](CCC(=O)O)NC1=O [indium-111 labelled] | – | C57 mice, B16F10 lung metastasis, urine | intravenous, 0.037 MBq, 4 h | – | urinary excretion | 85.7 ± 1.66% |
| Oc1ccc(/C=C/c2cc(O)cc(O)c2)cc1 | cytochrome c release, ELISA | BALB/cByJ female mouse liver mitochondria | 30 min | relative to: alamethicin maximal release | EC20 | > 200 µM |
| Cc1cc(C(=O)NC(C)(C)COc2cccc3c2C(N)=NS(=O)(=O)N3)cc(C)n1 | – | male Sprague-Dawley rat, plasma | oral, 100 mg/kg, single dose | – | bioavailability | 0.19% |
| NNC(=O)c1ccncc1 | mitochondrial swelling | BALB/cByJ female mouse liver mitochondria | 30 min, added: succinate + rotenone | relative to: CaCl2 maximal swelling | EC20 | > 800 µM |
| CC[C@H](C)CCCCC(=O)N[C@@H](CCN)C(=O)N[C@H](C(=O)N[C@@H](CCN)C(=O)N[C@H]1CCNC(=O)[C@H]([C@@H](C)O)NC(=O)[C@H](CCN)NC(=O)[C@H](CCN)NC(=O)[C@H](CC(C)C)NC(=O)[C@@H](Cc2ccccc2)NC(=O)[C@H](CCN)NC1=O)[C@@H](C)O | equilibrium dialysis LC-MS/MS | human patients, plasma | dose not given, median | – | free Cmin | 0.07 µg/mL |

For quick reference, copied from above:
| SMILES | assay | system | setting | how to read | endpoint | result |
| --- | --- | --- | --- | --- | --- | --- |
| CC(C)[C@@H](C)[C@@]1(C)CC[C@]2(C)[C@H]3CC[C@@H]4[C@@]5(COC[C@@]4(C)[C@@H](OC[C@](C)(N)C(C)(C)C)[C@H](n4ncnc4-c4ccncc4)C5)C3=CC[C@@]2(C)[C@@H]1C(=O)O | – | human, both sexes, plasma | oral, 1250 mg day 1, then 750 mg days 2 and 3, 24 h, day 3, geometric mean | – | concentration at 24 h | 0.385 µg/mL |
| COc1cccc(N2CCN(C3=Nc4c(F)cccc4[C@H](CC(=O)O)N3c3cc(C(F)(F)F)ccc3OC)CC2)c1 | UHPLC-MS/MS | healthy women, plasma | intravenous infusion, 120 mg single dose, 30 min infusion, HPβCD formulation | – | AUC(0-last) | 13.6 ± 3.8 µg·h/mL |
| CO[C@H]1C[C@@H]2CC[C@@H](C)[C@@](O)(O2)C(=O)C(=O)N2CCCC[C@H]2C(=O)O[C@H]([C@H](C)C[C@@H]2CC[C@@H](OC(=O)C(C)(CO)CO)[C@H](OC)C2)CC(=O)[C@H](C)/C=C(\C)[C@@H](O)[C@@H](OC)C(=O)[C@H](C)C[C@H](C)/C=C/C=C/C=C/1C | – | human, whole blood | intravenous, 35 mg/m2 weekly, cycle 5, added: valproic acid | – | median Cmax | 1.09 µg/mL |
